Measured values gathered from unrelated publications.
Parts stem from different laboratories: compare values within a part only. Several values in a cell are separate wells, animals, samples, runs or records.
Chain of UniProt Q05655 (whole entry, looked up): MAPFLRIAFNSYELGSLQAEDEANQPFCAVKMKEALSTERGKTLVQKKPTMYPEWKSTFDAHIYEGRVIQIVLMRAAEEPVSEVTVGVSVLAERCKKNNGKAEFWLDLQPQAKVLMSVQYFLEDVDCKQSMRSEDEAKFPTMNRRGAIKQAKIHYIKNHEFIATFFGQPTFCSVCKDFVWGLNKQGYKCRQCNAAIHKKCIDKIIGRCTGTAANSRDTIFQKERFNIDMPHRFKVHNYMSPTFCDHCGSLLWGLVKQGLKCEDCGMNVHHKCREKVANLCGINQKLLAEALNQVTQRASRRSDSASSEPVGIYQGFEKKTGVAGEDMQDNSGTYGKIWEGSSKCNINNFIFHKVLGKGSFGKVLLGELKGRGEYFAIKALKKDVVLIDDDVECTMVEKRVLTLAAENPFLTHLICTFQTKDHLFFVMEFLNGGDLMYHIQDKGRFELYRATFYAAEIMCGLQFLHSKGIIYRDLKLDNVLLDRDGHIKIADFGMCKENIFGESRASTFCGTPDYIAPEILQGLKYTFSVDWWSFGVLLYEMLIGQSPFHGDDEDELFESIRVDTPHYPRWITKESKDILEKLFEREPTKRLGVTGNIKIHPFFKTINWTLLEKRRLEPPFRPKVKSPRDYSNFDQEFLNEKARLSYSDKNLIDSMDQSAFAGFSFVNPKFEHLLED
Chain of UniProt Q06187 (whole entry, looked up): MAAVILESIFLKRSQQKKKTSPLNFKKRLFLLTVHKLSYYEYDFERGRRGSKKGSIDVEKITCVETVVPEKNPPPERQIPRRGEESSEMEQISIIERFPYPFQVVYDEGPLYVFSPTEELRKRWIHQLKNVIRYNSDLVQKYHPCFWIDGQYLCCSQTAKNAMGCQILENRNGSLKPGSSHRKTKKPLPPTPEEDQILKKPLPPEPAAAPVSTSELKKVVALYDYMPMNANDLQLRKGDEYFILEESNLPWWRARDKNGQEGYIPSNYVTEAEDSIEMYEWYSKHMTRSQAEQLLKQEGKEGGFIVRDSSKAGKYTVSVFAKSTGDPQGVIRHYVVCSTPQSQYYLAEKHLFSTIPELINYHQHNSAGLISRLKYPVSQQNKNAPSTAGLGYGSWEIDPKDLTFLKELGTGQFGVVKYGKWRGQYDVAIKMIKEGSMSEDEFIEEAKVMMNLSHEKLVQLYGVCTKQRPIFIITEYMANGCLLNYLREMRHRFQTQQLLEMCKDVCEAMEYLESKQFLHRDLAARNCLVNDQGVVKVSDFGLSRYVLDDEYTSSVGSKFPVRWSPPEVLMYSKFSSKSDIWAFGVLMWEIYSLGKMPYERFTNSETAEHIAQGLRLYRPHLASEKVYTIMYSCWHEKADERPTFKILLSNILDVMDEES
Chain of UniProt Q9HBH9 (whole entry, looked up): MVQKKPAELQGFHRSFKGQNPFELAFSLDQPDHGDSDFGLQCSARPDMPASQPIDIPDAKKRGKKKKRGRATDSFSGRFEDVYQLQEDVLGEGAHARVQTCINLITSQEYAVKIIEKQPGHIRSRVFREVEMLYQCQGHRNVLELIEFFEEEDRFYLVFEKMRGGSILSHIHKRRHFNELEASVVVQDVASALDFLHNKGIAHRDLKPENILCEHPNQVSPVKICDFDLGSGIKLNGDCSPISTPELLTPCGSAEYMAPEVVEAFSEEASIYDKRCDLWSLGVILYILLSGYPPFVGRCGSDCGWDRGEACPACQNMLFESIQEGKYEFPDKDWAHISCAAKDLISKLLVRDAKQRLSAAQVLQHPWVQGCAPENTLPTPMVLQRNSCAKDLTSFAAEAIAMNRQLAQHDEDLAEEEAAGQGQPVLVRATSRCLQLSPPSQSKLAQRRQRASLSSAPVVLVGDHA
Chain of UniProt P68400 (whole entry, looked up): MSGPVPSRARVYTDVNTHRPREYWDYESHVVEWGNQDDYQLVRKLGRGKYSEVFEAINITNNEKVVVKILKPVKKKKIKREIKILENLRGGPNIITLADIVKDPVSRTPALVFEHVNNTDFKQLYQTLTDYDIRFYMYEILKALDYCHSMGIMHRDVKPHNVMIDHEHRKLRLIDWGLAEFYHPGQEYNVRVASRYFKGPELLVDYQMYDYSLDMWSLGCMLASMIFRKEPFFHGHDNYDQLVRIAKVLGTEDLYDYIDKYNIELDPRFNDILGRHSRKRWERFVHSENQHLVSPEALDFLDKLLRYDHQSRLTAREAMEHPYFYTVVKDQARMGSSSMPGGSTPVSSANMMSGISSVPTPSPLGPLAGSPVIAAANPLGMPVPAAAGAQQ
Chain of UniProt Q9BXA7 (whole entry, looked up): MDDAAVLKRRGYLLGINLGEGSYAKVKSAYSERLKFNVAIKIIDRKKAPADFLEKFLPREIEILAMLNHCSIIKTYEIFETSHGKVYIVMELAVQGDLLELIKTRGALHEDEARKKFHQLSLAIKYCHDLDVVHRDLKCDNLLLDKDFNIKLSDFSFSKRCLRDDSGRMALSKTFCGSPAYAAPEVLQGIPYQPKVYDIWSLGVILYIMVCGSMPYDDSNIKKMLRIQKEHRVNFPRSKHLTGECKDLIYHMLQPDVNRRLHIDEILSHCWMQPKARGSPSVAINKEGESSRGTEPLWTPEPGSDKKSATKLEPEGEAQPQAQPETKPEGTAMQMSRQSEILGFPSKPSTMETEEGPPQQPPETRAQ
Chain of UniProt P51957 (whole entry, looked up): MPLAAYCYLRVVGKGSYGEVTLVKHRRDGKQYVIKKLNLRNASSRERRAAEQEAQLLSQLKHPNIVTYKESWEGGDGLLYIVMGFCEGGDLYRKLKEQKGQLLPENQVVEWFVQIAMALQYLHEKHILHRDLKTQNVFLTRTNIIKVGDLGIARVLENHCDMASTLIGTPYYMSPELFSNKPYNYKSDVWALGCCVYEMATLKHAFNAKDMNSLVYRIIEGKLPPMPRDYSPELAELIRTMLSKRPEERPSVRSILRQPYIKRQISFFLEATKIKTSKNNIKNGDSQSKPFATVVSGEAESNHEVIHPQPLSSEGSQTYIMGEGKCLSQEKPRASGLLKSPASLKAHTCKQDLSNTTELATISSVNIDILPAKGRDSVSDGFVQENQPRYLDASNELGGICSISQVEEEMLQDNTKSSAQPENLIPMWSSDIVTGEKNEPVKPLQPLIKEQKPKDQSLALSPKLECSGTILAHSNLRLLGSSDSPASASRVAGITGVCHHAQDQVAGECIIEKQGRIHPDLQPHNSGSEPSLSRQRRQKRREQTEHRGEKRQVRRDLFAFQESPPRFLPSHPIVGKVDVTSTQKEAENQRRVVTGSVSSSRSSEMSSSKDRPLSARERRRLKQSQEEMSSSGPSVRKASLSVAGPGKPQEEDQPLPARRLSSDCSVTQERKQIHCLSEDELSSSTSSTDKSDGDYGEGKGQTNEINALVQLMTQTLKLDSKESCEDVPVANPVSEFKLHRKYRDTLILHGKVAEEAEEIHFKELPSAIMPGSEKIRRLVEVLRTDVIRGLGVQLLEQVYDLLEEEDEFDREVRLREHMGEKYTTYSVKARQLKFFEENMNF
Chain of UniProt P54756 (whole entry, looked up): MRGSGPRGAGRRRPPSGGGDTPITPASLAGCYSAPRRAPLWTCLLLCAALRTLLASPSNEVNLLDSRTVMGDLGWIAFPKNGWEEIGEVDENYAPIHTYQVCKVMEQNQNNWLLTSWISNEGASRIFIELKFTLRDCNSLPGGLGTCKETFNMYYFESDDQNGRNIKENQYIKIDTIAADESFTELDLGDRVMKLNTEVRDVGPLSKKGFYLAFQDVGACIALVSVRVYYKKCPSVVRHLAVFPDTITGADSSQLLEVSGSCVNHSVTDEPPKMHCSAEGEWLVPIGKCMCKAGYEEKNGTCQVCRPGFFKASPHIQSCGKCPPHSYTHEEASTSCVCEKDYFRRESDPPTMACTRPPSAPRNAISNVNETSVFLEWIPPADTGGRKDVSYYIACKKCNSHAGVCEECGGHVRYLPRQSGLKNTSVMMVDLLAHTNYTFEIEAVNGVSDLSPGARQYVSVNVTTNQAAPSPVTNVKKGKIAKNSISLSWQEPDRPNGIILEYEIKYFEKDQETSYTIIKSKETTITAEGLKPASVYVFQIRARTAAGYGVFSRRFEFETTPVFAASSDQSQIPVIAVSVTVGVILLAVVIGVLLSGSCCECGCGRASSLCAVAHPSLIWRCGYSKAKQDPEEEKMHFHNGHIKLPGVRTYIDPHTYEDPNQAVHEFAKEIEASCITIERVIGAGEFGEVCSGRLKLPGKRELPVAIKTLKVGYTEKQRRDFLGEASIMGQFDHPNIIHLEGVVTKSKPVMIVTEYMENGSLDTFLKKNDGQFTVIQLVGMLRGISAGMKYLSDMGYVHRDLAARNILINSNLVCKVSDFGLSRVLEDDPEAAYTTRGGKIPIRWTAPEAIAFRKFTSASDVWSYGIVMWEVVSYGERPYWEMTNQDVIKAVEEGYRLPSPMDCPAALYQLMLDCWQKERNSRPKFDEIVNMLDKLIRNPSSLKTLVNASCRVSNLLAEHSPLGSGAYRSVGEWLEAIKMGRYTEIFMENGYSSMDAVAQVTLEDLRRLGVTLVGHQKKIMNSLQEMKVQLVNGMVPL

Study 1 — Compound: O=C(O)/C=C/c1cc(Br)c(Br)c(Br)c1Br; read-out: enzyme activity; action: inhibitor; tested at: 0.5 µM; reference: control
target | remaining activity [%]
Serine/threonine-protein kinase Chk1 (CHEK1, Homo sapiens, UniProt O14757) | 135
Dual specificity mitogen-activated protein kinase kinase 6 (MAP2K6, Homo sapiens, UniProt P52564) | 96.1
Protein kinase C iota type (PRKCI, Homo sapiens, UniProt P41743) | 97.3
Mitogen-activated protein kinase 12 (MAPK12, Homo sapiens, UniProt P53778) | 103
MAP kinase-interacting serine/threonine-protein kinase 2 (MKNK2, Homo sapiens, UniProt Q9HBH9) | 53.8
Casein kinase I isoform alpha (CSNK1A1, Homo sapiens, UniProt P48729) | 79.3
Casein kinase II subunit alpha (CSNK2A1, Homo sapiens, UniProt P68400) | 13.1
Tyrosine-protein kinase BTK (BTK, Homo sapiens, UniProt Q06187) | 97.8
cGMP-dependent protein kinase 1 (PRKG1, Homo sapiens, UniProt Q13976) | 78.9
Mitogen-activated protein kinase kinase kinase kinase 2 (MAP4K2, Homo sapiens, UniProt Q12851) | 89.3
Leucine-rich repeat serine/threonine-protein kinase 2 (LRRK2, Homo sapiens, UniProt Q5S007) | 87.6
Serine/threonine-protein kinase Nek4 (NEK4, Homo sapiens, UniProt P51957) | 54.6
Interleukin-1 receptor-associated kinase 4 (IRAK4, Homo sapiens, UniProt Q9NWZ3) | 86.6
Serine/threonine-protein kinase PLK2 (PLK2, Homo sapiens, UniProt Q9NYY3) | 51.5
Mast/stem cell growth factor receptor Kit (KIT, Homo sapiens, UniProt P10721) | 89.2
RAC-gamma serine/threonine-protein kinase (AKT3, Homo sapiens, UniProt Q9Y243) | 92.7
Cyclin-dependent kinase 9, with cyclin T1 (CDK9, Homo sapiens, UniProt P50750) | 58.9
Mitogen-activated protein kinase kinase kinase 10 (MAP3K10, Homo sapiens, UniProt Q02779) | 92.3
Serine/threonine-protein kinase WNK2 (WNK2, Homo sapiens, UniProt Q9Y3S1) | 93
Mitogen-activated protein kinase 13 (MAPK13, Homo sapiens, UniProt O15264) | 98.5
Protein kinase C delta type (PRKCD, Homo sapiens, UniProt Q05655) | 93.9
Tyrosine-protein kinase Lyn (LYN, Homo sapiens, UniProt P07948) | 99.3
Ephrin type-A receptor 5 (EPHA5, Homo sapiens, UniProt P54756) | 88.7

Study 2 — read-out: enzyme activity; action: inhibitor; tested at: 10 µM
Target: Calcium/calmodulin-dependent protein kinase type II subunit alpha (CAMK2A, Homo sapiens, UniProt Q9UQM7)
Chain of UniProt Q9UQM7 (whole entry, looked up): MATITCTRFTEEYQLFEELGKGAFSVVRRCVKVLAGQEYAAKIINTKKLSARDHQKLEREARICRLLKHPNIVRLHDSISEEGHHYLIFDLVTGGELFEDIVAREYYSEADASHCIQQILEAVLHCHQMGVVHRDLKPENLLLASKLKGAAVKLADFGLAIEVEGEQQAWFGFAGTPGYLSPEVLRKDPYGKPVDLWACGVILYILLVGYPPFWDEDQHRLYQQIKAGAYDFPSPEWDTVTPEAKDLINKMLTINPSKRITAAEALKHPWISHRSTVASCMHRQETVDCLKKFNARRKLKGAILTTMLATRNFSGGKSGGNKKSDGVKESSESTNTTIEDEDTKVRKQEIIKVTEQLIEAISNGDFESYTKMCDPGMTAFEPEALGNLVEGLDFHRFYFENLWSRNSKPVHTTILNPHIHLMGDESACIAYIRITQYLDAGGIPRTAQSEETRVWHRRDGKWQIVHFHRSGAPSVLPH
Structure (SMILES) | inhibition
COc1cc(O)c2c(=O)cc(-c3ccc(O)c(OC)c3)oc2c1 | -16%
CCOC(=O)CCC(=O)OCC | -35%
Nc1ccn([C@H]2C[C@H](O)[C@@H](CO)O2)c(=O)n1 | -12%
Oc1cc(O)c(Cl)cn1 | -5%
C[C@@H]1O[C@@H](O[C@H]2[C@H](O[C@H]3CC[C@]4(C)[C@H]5CC=C6[C@@H]7CC(C)(C)CC[C@]7(C(=O)O)CC[C@@]6(C)[C@]5(C)CC[C@H]4C3(C)C)OC[C@H](O[C@@H]3O[C@H](CO)[C@@H](O)[C@H](O)[C@H]3O)[C@@H]2O)[C@H](O)[C@H](O)[C@H]1O | -17%
CN1CC(=O)NC1=N | -29%
CC1(C)[C@H](OC(=O)c2ccccc2)CC[C@]2(C)C3=CC[C@@]4(C)[C@@H]5C[C@](C)(COC(=O)c6ccccc6)CC[C@]5(C)CC[C@]4(C)C3=CC[C@@H]12 | -16%
COc1cc2c(c(OC)c1OC)-c1c(cc3c(c1OC)OCO3)C[C@H](C)[C@H](C)C2 | -0.02% and 0.03%
C/C(=C\CNc1ncnc2c1ncn2[C@@H]1O[C@H](CO)[C@@H](O)[C@H]1O)CO | -10%
Cc1ccccc1N1C(=O)c2cc(S(N)(=O)=O)c(Cl)cc2NC1C (centres unmarked) | -8%
Cc1ccc(C)c(OCCCC(C)(C)C(=O)O)c1 | 11%
CCn1cc(C(=O)O)c(=O)c2cc(F)c(N3CCNCC3)cc21 | -5%
CCCC(=O)OCOC(=O)C1=C(C)NC(C)=C(C(=O)OC)C1c1cccc(Cl)c1Cl (centres unmarked) | 6%

Study 3 — organism: Cryptosporidium parvum; method: time-kill; cells: HCT-8; strain: nanoluciferase-expressing; direction: higher = more parasites
SMILES: CN(C(=O)c1ccn2ncc(-c3ccc(C(N)=O)cc3)c2c1)c1ccc(C#N)cn1
tested at | time | parasite luminescence
0.00914 µM | 8 h | 108000 RLU and 107000 RLU
2.222 µM | 48 h | 33300 RLU and 22000 RLU
0.7407 µM | 4 h | 72300 RLU and 77100 RLU
0.02743 µM | 4 h | 71400 RLU and 68100 RLU
0.00305 µM | 4 h | 84500 RLU and 76200 RLU
0.2469 µM | 8 h | 98000 RLU and 99200 RLU
2.222 µM | 4 h | 94500 RLU and 107000 RLU
6.667 µM | 48 h | 29700 RLU and 21900 RLU
20 µM | 72 h | 20400 RLU and 21500 RLU
0.7407 µM | 8 h | 107000 RLU and 116000 RLU
0.02743 µM | 8 h | 92800 RLU and 108000 RLU

Study 4 — tested at: 1 µM
SMILES: CNCc1ccccc1-c1csc([C@H](C)Nc2nc(C)nc3cc(OC)c(OC)cc23)c1
target | read-out | method | remaining binding [%]
Testis-specific serine/threonine-protein kinase 1 (TSSK1B, Homo sapiens, UniProt Q9BXA7) | cell-free assay | competition with immobilised ligand | 93
Receptor-type tyrosine-protein kinase FLT3 (FLT3, Homo sapiens, UniProt P36888, N841I) | cell-free assay | competition with immobilised ligand | 100
Ankyrin repeat and protein kinase domain-containing protein 1 (ANKK1, Homo sapiens, UniProt Q8NFD2) | cell-free assay | competition with immobilised ligand | 90
Tyrosine-protein kinase Fer (FER, Homo sapiens, UniProt P16591) | cell-free assay | competition with immobilised ligand | 100
Serine/threonine-protein kinase PAK 4 (PAK4, Homo sapiens, UniProt O96013) | cell-free assay | competition with immobilised ligand | 100
LIM domain kinase 1 (LIMK1, Homo sapiens, UniProt P53667) | cell-free assay | competition with immobilised ligand | 100
Megakaryocyte-associated tyrosine-protein kinase (MATK, Homo sapiens, UniProt P42679) | cell-free assay | competition with immobilised ligand | 51
Serine/threonine-protein kinase 24 (STK24, Homo sapiens, UniProt Q9Y6E0) | cell-free assay | competition with immobilised ligand | 100
Inhibitor of nuclear factor kappa-B kinase subunit epsilon (IKBKE, Homo sapiens, UniProt Q14164) | cell-free assay | competition with immobilised ligand | 85
Cyclin-dependent kinase 2 (CDK2, Homo sapiens, UniProt P24941) | cell-free assay | competition with immobilised ligand | 91
Dual specificity mitogen-activated protein kinase kinase 7 (MAP2K7, Homo sapiens, UniProt O14733) | cell-free assay | competition with immobilised ligand | 81
Serine/threonine-protein kinase pim-3 (PIM3, Homo sapiens, UniProt Q86V86) | cell-free assay | competition with immobilised ligand | 100
Mitogen-activated protein kinase 1 (MAPK1, Homo sapiens, UniProt P28482) | cell-free assay | competition with immobilised ligand | 100
Receptor-type tyrosine-protein kinase FLT3 (FLT3, Homo sapiens, UniProt P36888, D835Y) | cell-free assay | competition with immobilised ligand | 100
Interferon-induced, double-stranded RNA-activated protein kinase (EIF2AK2, Homo sapiens, UniProt P19525) | cell-free assay | competition with immobilised ligand | 100
Serine/threonine-protein kinase 35 (STK35, Homo sapiens, UniProt Q8TDR2) | cell-free assay | competition with immobilised ligand | 100
Cyclin-dependent kinase 19 (CDK19, Homo sapiens, UniProt Q9BWU1) | – | competition binding | 88
Receptor-type tyrosine-protein kinase FLT3 (FLT3, Homo sapiens, UniProt P36888, D835H) | cell-free assay | competition with immobilised ligand | 74
Proto-oncogene tyrosine-protein kinase receptor Ret (RET, Homo sapiens, UniProt P07949, M918T) | cell-free assay | competition with immobilised ligand | 99
Beta-adrenergic receptor kinase 1 (GRK2, Homo sapiens, UniProt P25098) | cell-free assay | competition with immobilised ligand | 100
Bone morphogenetic protein receptor type-1B (BMPR1B, Homo sapiens, UniProt O00238) | cell-free assay | competition with immobilised ligand | 100

For quick reference, copied from above (study 3):
tested at | time | parasite luminescence
20 µM | 72 h | 20400 RLU and 21500 RLU
0.00914 µM | 8 h | 108000 RLU and 107000 RLU
2.222 µM | 48 h | 33300 RLU and 22000 RLU
0.7407 µM | 4 h | 72300 RLU and 77100 RLU
0.02743 µM | 4 h | 71400 RLU and 68100 RLU
2.222 µM | 4 h | 94500 RLU and 107000 RLU
6.667 µM | 48 h | 29700 RLU and 21900 RLU
0.7407 µM | 8 h | 107000 RLU and 116000 RLU
